Results collected from several papers.
Each line is one published result; not all experiments were run side by side. Numbers after ± are the reported error.
B1: enzyme (Streptomyces platensis, UniProt A0A0A0V031); chain MQHTTIGDVLREHRRSHPGRTALVDGPVRLTWPELDDRVNRLAGSLAASGIGRGDRIMWLGQNSFRVYELIAAAGKLGAMVCVGYWRWAPPEMEFALRDFDPHLVVWQHQEIHETVARTREALGSDDTARWLRHDSAPQDPDGYEAFLAAGGLADPDLDIDPDSPVLVLYTAAMSGRQCGSLLSHTNLIAMATAAAWLGDIDHTTAFLNSGPMFHIGNHQFWGMPTLLMAGKNVIVRRVVAEEVRDLLVAEECTHAFLMPPTVAEIVRLNRDTGHDLSRLRATVAPHLWEGMATTDTSRFTRSGAAAGRGYGQTELSGFAVTAAYGGPAAGNAGRPGPGLTVRVLDTAGRECAVGEAGEICARGTVVHRGYWNRDEVNAHRFRSGWWHTTDLGRREPDGSLTFLGTTTRMLKSAAENIFPAEVENCIEQHPAVREAAVIGVPNTRWAQDVKAVVVLEPDAGVSEQEIIDHCRPRIASYKKPKSVAFAAALPRTVSGARDYDALDKEYGGGGYPGAATLGPGR
Chain of UniProt P0DMM9 (whole entry, looked up): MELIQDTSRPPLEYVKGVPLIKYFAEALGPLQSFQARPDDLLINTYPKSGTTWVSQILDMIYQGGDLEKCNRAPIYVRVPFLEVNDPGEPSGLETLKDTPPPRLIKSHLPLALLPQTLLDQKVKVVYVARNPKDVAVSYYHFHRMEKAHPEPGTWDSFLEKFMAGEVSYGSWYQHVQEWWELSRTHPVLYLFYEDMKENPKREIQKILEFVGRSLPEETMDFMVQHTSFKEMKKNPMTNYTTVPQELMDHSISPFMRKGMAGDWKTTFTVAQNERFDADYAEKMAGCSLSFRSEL
Chain of UniProt P49888 (whole entry, looked up): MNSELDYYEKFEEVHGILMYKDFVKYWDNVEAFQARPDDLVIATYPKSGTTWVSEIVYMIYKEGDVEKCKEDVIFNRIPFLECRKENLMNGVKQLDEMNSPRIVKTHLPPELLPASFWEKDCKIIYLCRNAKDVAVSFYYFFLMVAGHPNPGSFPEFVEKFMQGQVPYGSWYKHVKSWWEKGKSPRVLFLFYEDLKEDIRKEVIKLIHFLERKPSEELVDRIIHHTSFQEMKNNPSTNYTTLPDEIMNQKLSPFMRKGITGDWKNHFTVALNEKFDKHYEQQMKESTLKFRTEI

Substance | target or system | test | test system | conditions | scale | measurement | result
B1 (enzyme) | C[C@@]12CCC[C@@](C)(C(=O)OP(=O)(O)OC[C@H]3O[C@@H](n4cnc5c(N)ncnc54)[C@H](O)[C@@H]3O)[C@H]1C[C@@H](O)[C@]13C[C@H]4C[C@H](O[C@@]4(C)C1)[C@@H]23 | steady-state kinetics | – | pH 7.8, 25 °C | – | Vmax | 12.9 µmol/min
N=C(N)NCCC[C@@H]1NC(=O)[C@H](CCCCNC(=O)CC[C@H](NC(=O)CC[C@H](NC(=O)CN2CCN(CC(=O)O)CCN(CC(=O)O)CCN(CC(=O)O)CC2)C(=O)N[C@@H](CCC(=O)NCCCC[C@@H]2NC(=O)[C@@H](Cc3ccccc3)NC(=O)[C@H](CC(=O)O)NC(=O)CNC(=O)[C@H](CCCNC(=N)N)NC2=O)C(=O)NCCCC[C@@H]2NC(=O)[C@@H](Cc3ccccc3)NC(=O)[C@H](CC(=O)O)NC(=O)CNC(=O)[C@H](CCCNC(=N)N)NC2=O)C(=O)NCCCC[C@@H]2NC(=O)[C@@H](Cc3ccccc3)NC(=O)[C@H](CC(=O)O)NC(=O)CNC(=O)[C@H](CCCNC(=N)N)NC2=O)NC(=O)[C@@H](Cc2ccccc2)NC(=O)[C@H](CC(=O)O)NC(=O)CNC1=O [indium-111 labelled] | – | – | female athymic nu/nu mice, U87MG tumour | intravenous, 111 kBq, 24 h | – | tissue uptake | 5.84 ± 1.09 %ID/g
Cc1nc(C)c(C=[N+]([O-])C(C)(C)C)nc1C | – | Western blot, refers to: PGC-1α | primary midbrain neurons, rat | 300 µM, added: 20 µM MPP+ | – | protein level increase | 43.3%
SULT1A3 (Homo sapiens, UniProt P0DMM9) | O=C(O[C@@H]1Cc2c(O)cc(O)cc2O[C@@H]1c1cc(O)c(O)c(O)c1)c1cc(O)c(O)c(O)c1 | steady-state kinetics | – | pH 7.4, not purified | – | Vmax | 0.039 µmol/min/mg
COc1cc(CNC(=O)C[C@H](C)CCC=C(C)C)ccc1OCc1cn(-c2cccc([N+](=O)[O-])c2)nn1 | SW-620 | SRB | – | 10 µM, 48 h | – | growth percent | 80.9%
SULT1E1 (Homo sapiens, UniProt P49888) | O=C(O[C@@H]1Cc2c(O)cc(O)cc2O[C@@H]1c1cc(O)c(O)c(O)c1)c1cc(O)c(O)c(O)c1 | steady-state kinetics | – | pH 7.4, not purified | – | Vmax | 0.00824 µmol/min/mg
N=C(N)NCCC[C@@H]1NC(=O)[C@H](CCCCNC(=S)Nc2ccc(CC3CN(CC(=O)O)CCN(CC(=O)O)CCN(CC(=O)O)CCN3CC(=O)O)cc2)NC(=O)[C@@H](Cc2ccc(O)cc2)NC(=O)[C@H](CC(=O)O)NC(=O)CNC1=O (stereo partly shown) [actinium-225 labelled] | – | – | U-87 MG tumour-bearing mice | 1 h | – | tumour to muscle ratio | 2.4
CC(C)C[C@H](NC(=O)C[C@H](O)[C@H](CC(C)C)NC(=O)[C@H](Cc1c[nH]cn1)NC(=O)CNC(=O)[C@@H](NC(=O)[C@H](C)NC(=O)[C@H](Cc1c[nH]c2ccccc12)NC(=O)[C@H](CCC(N)=O)NC(=O)[C@@H](Cc1ccccc1)NC(=O)CCOCCOCCOCCNC(=O)CN1CCN(CC(=O)O)CCN(CC(=O)O)CC1)C(C)C)C(N)=O [gallium-68 labelled] | – | radio-HPLC | nude mice, PC-3 tumour, tumour homogenate | intravenous, 37 MBq, 30 min | – | intact parent | 79.7%
[64Cu+2].c1ccc(CNCc2ccc(CN3CCCN4CCNCCCN(CC4)CC3)cc2)nc1 | CXCR4 | – | NOD/SCID mouse, tumour | 90 min | reference: U87-stb-CXCR4 over U87 | uptake ratio | 4.43 ± 1.38
N=C(N)NCCC[C@@H]1NC(=O)[C@H](CCCCNC(=O)CNC(=O)CNC(=O)CNC(=O)CC[C@H](NC(=O)CNC(=O)CNC(=O)CNC(=O)CC[C@H](NC(=O)CN2CCN(CC(=O)O)CCN(CC(=O)O)CCN(CC(=O)O)CC2)C(=O)NCC(=O)NCC(=O)NCC(=O)N[C@@H](CCC(=O)NCC(=O)NCC(=O)NCC(=O)NCCCC[C@@H]2NC(=O)[C@@H](Cc3ccccc3)NC(=O)[C@H](CC(=O)O)NC(=O)CNC(=O)[C@H](CCCNC(=N)N)NC2=O)C(=O)NCC(=O)NCC(=O)NCC(=O)NCCCC[C@@H]2NC(=O)[C@@H](Cc3ccccc3)NC(=O)[C@H](CC(=O)O)NC(=O)CNC(=O)[C@H](CCCNC(=N)N)NC2=O)C(=O)NCC(=O)NCC(=O)NCC(=O)NCCCC[C@@H]2NC(=O)[C@@H](Cc3ccccc3)NC(=O)[C@H](CC(=O)O)NC(=O)CNC(=O)[C@H](CCCNC(=N)N)NC2=O)NC(=O)[C@@H](Cc2ccccc2)NC(=O)[C@H](CC(=O)O)NC(=O)CNC1=O [indium-111 labelled] | – | – | female athymic nu/nu mice, heart | intravenous, 4 h | – | tissue uptake | 1.03 ± 0.23 %ID/g
[64Cu+2].c1cnc(CNCc2ccc(CN3CCCN4CCNCCCN(CC4)CC3)cc2)nc1 | CXCR4 (human) | – | NOD/SCID mice, U87 xenografts, small intestine | 240 min post-injection | – | tissue uptake | 4.33 ± 1.11 %ID/g
N=C(N)NCCC[C@@H]1NC(=O)[C@H](CCCCNC(=O)CNC(=O)CNC(=O)CNC(=O)CC[C@H](NC(=O)CNC(=O)CNC(=O)CNC(=O)CN2CCN(CC(=O)O)CCN(CC(=O)O)CCN(CC(=O)O)CC2)C(=O)NCC(=O)NCC(=O)NCC(=O)NCCCC[C@@H]2NC(=O)[C@@H](Cc3ccccc3)NC(=O)[C@H](CC(=O)O)NC(=O)CNC(=O)[C@H](CCCNC(=N)N)NC2=O)NC(=O)[C@@H](Cc2ccccc2)NC(=O)[C@H](CC(=O)O)NC(=O)CNC1=O [indium-111 labelled] | – | – | female athymic nu/nu mice, U87MG tumour | intravenous, 111 kBq, 24 h | – | tissue uptake | 4.83 ± 1.19 %ID/g
CSCC[C@H](NC(=O)[C@H](CC(C)C)NC(=O)[C@H](Cc1c[nH]cn1)NC(=O)CNC(=O)[C@@H](NC(=O)[C@H](C)NC(=O)[C@H](Cc1c[nH]c2ccccc12)NC(=O)[C@H](CCC(N)=O)NC(=O)CCOCCOCCOCCOCCNC(=O)CN1CCN(CC(=O)O)CCN(CC(=O)O)CCN(CC(=O)O)CC1)C(C)C)C(N)=O [indium-111 labelled] | – | – | Swiss nu/nu mice, PC-3 xenograft | intravenous, 10 pmol, 1 h to 24 h post injection | – | tumour to pancreas ratio increase | 1 fold

Repeated from above:
Substance | target or system | test | test system | conditions | scale | measurement | result
Cc1nc(C)c(C=[N+]([O-])C(C)(C)C)nc1C | – | Western blot, refers to: PGC-1α | primary midbrain neurons, rat | 300 µM, added: 20 µM MPP+ | – | protein level increase | 43.3%
SULT1A3 (Homo sapiens, UniProt P0DMM9) | O=C(O[C@@H]1Cc2c(O)cc(O)cc2O[C@@H]1c1cc(O)c(O)c(O)c1)c1cc(O)c(O)c(O)c1 | steady-state kinetics | – | pH 7.4, not purified | – | Vmax | 0.039 µmol/min/mg
